Measured values from different studies.
Lines come from different studies, so protocols differ. Several values in a cell are separate wells, animals, samples, runs or records. ± marks the error that the study gave.
Ugcg: Ceramide glucosyltransferase (Ugcg, Mus musculus, UniProt O88693)
Sequence of UniProt O88693 (whole entry, looked up): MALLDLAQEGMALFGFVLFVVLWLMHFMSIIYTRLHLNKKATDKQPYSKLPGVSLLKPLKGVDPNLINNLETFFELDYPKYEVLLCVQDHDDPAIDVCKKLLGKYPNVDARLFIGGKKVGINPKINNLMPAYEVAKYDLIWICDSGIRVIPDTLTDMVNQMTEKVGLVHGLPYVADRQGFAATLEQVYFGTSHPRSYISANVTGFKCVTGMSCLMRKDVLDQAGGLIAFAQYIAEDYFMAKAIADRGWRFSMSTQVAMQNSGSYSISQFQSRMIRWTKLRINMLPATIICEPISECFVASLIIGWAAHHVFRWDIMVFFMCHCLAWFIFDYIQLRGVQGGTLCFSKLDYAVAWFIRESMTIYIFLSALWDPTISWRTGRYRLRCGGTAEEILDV
USP5: Ubiquitin carboxyl-terminal hydrolase 5 (USP5, Homo sapiens, UniProt P45974)
Sequence of UniProt P45974 (whole entry, looked up): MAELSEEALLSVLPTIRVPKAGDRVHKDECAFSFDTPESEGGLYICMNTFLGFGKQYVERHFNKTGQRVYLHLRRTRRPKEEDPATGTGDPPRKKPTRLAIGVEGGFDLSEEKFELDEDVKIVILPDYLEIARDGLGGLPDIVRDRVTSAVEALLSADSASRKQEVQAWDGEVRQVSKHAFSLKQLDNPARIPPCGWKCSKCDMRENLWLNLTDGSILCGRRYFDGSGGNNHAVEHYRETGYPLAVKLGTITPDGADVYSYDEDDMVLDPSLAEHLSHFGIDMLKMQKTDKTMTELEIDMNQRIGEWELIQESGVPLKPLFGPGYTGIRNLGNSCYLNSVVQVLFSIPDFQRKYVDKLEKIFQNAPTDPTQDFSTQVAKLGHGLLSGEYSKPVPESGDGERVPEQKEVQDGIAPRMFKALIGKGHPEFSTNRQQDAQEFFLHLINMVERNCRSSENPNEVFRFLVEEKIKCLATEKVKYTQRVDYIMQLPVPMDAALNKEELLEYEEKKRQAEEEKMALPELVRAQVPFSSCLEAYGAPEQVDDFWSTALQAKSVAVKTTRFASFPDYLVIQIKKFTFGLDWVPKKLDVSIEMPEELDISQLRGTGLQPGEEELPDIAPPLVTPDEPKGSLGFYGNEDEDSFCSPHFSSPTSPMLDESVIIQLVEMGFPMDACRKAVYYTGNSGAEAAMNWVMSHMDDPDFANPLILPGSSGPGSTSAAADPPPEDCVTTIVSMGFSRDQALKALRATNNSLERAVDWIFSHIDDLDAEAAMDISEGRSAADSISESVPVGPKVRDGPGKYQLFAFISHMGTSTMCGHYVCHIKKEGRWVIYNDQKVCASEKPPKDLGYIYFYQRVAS
PTGS2: Prostaglandin G/H synthase 2 (PTGS2, Homo sapiens, UniProt P35354)
Sequence of UniProt P35354 (whole entry, looked up): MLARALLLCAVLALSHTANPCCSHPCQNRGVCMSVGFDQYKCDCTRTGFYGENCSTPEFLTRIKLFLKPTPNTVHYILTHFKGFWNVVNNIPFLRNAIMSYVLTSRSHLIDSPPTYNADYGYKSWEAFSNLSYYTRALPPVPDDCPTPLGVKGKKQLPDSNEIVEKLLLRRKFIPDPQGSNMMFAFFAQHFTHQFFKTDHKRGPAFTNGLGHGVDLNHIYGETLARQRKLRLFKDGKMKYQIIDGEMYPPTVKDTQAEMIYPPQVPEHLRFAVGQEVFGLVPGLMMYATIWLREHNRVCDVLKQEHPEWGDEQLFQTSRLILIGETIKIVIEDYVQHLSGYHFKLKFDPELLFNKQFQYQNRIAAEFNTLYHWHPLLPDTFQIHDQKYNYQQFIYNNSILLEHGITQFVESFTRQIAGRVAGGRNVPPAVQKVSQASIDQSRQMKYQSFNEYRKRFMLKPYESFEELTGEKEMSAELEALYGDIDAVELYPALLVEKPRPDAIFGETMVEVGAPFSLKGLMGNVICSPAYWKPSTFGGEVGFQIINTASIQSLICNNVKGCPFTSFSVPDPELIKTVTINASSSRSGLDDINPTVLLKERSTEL
Protein-S-isoprenylcysteine O-methyltransferase: Protein-S-isoprenylcysteine O-methyltransferase (Homo sapiens, UniProt O60725)
Sequence of UniProt O60725 (whole entry, looked up): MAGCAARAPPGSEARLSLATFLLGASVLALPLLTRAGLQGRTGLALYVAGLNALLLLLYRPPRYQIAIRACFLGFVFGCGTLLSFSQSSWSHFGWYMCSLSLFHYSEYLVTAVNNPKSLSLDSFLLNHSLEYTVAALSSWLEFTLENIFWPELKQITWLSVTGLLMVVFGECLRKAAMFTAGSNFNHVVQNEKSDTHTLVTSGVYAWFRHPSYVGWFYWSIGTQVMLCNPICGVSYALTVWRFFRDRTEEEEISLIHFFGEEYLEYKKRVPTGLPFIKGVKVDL
Coelenterazine h 2-monooxygenase: Coelenterazine h 2-monooxygenase (Renilla reniformis, UniProt P27652)
Sequence of UniProt P27652 (whole entry, looked up): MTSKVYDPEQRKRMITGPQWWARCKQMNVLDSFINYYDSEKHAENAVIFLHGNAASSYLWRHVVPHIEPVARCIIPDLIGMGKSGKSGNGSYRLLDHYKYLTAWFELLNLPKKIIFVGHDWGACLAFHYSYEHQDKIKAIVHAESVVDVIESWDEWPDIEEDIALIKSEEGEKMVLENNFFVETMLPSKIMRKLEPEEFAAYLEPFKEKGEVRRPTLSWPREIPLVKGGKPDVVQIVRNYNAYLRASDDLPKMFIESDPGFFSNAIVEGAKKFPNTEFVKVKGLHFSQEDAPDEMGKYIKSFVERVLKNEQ
AR: Androgen receptor (AR, Homo sapiens, UniProt P10275)
Sequence of UniProt Q02127 (whole entry, looked up): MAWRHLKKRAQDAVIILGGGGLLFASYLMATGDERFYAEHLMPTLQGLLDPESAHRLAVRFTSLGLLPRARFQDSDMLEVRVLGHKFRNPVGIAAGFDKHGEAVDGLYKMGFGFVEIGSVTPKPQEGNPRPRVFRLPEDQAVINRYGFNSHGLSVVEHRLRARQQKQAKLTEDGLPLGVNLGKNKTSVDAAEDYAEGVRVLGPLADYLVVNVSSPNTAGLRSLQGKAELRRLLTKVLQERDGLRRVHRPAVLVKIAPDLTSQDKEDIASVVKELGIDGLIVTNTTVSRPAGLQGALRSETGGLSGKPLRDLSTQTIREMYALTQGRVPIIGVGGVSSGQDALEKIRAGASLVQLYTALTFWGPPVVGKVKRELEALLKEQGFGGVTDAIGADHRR
Sequence of UniProt Q9H5I1 (whole entry, looked up): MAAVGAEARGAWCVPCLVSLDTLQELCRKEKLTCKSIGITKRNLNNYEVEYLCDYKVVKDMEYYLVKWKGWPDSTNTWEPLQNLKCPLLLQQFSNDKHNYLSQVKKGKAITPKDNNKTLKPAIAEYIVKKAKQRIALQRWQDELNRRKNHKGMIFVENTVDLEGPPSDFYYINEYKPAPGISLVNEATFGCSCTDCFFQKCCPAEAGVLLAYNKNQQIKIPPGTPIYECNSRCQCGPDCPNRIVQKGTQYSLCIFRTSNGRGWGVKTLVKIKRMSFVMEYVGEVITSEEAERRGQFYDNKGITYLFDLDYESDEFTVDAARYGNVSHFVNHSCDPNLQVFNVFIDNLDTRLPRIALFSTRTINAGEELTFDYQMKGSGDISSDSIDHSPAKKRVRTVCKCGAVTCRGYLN
Sequence of UniProt P51684 (whole entry, looked up): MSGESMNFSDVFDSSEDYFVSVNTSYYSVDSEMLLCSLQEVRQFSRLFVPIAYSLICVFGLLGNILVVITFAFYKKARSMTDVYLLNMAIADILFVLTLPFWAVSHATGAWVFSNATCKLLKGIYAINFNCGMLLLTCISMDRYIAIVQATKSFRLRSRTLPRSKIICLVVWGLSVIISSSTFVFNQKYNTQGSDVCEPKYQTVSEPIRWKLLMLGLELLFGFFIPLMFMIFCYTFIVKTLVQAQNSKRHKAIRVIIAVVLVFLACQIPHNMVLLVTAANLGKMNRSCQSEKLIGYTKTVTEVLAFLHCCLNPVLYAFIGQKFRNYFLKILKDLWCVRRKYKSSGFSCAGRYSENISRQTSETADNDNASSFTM
Sequence of UniProt O60307 (whole entry, looked up): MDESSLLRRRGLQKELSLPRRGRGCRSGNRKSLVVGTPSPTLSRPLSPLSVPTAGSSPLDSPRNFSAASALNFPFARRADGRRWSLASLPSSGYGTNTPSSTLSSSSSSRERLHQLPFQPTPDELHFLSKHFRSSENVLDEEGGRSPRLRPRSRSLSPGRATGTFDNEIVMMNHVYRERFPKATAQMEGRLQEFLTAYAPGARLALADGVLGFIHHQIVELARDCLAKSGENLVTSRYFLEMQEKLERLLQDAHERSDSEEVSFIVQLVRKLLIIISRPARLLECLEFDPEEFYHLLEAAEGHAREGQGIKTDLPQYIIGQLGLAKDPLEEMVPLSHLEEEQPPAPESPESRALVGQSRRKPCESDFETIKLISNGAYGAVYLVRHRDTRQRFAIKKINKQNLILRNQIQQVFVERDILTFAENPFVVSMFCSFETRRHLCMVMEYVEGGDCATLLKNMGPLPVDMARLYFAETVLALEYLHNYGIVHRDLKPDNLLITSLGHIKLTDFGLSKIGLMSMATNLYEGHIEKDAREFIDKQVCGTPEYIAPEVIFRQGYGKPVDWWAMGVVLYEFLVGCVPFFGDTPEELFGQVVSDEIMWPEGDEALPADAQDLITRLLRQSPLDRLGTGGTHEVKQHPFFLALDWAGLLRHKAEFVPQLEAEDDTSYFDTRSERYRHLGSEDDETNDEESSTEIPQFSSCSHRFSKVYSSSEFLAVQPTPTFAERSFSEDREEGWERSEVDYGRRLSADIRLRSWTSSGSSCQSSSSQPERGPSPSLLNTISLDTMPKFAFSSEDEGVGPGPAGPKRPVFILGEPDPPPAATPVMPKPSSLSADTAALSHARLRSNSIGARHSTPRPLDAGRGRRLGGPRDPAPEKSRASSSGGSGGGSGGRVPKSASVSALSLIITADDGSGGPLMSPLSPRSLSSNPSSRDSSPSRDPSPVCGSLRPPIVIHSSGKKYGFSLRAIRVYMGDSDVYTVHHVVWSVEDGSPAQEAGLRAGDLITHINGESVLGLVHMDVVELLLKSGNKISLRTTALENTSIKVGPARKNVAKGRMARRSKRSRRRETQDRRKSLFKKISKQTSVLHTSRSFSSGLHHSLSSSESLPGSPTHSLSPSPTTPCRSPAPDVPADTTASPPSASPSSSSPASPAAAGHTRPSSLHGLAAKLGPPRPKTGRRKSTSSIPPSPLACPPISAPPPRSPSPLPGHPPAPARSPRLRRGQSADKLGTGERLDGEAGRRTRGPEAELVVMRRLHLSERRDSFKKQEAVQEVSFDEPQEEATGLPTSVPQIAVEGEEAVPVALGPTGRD

SMILES	tested on	assay	test system	setting	endpoint	result
C=CC(=O)Nc1cc(-c2nn(C3CCN(CCNC(=O)[C@H](C)CCC45CC6CC(CC(C6)C4)C5)CC3)c3ncnc(N)c23)ccc1Oc1ccccc1	MAST3 (Homo sapiens, UniProt O60307)	inhibitor, KiNativ profiling	biochemical	2 µM	inhibition	13.2%
O=C1CO[C@H](CNC(=O)C2(c3ccc(Cl)cc3)CC2)CN1C1Cc2ccccc2C1	CCR6 (Homo sapiens, UniProt P51684)	β-arrestin recruitment, antagonist	–	1 µM	inhibition	51%
N=C(N)NCCCC(NC(=O)C(CC(=O)NO)Cc1ccc2ccccc2c1)C(=O)NC(Cc1c[nH]c2ccccc12)C(=O)NC(CCC(=O)O)C(N)=O (stereo not drawn)	Neprilysin (MME, Homo sapiens, UniProt P08473)	–	–	1 µM	inhibition	-10%
CC(=O)C12NC(C)(C)CC1(C)C(=O)C1=C2c2c(c3c4n2C(C)(C)CC2=C4C4(CC(C)(C)NC(C)(C4)C2=O)CC3(C)C)C(=O)C(C)(C)N1 (single isomer, unassigned; (-))	TRPV3 (Homo sapiens, UniProt Q8NET8)	ion current, inhibitor, patch clamp	HEK-293T	50 µM	inhibition	0.22%
CC(C)=CCOCCCCCN1C[C@H](O)[C@@H](O)[C@H](O)[C@@H]1CO	Ugcg	enzyme activity, inhibitor, fluorescence	–	–	IC50	1900 nM
C[Si](C)(C)C[C@@H](CN)CC(=O)O	CCKBR (Homo sapiens, UniProt P32239)	cell-free assay, inhibitor	–	75 µM	inhibition	-2%
CCCCOc1ccc(CSC(=N)N)cc1	USP5	enzyme activity, inhibitor	–	17 µM	inhibition	3%
CO[C@@H]1OC[C@@H](O)[C@H](O)[C@H]1O	PTGS2	enzyme activity, inhibitor	–	0.24 µg/mL	inhibition	5.82%
CS(=O)(=O)c1ccc(-n2cc(C=NN=c3[nH]c(-c4ccc([N+](=O)[O-])cc4)cs3)c(-c3ccc(Br)cc3)n2)cc1	PTGS2	enzyme activity	–	0.01 µM	inhibition	13.8%
CC=C(C)C(=O)OC1CC2C(C=C(C)C3C(OC(C)=O)CC(=O)C13C)OC(=O)C2C (stereo not drawn)	PTGS2	enzyme activity, inhibitor	–	31.25 µg/mL	inhibition	0%
CCCCCCCCN(CCC(=O)Nc1ccccc1)C(=O)c1cccnc1	Protein-S-isoprenylcysteine O-methyltransferase	enzyme activity	Sf9 membranes	50 µM, together with: [3H]S-adenosylmethionine, biotin-farnesyl-L-cysteine	inhibition	38%
CC(C)C[C@H](NC(=O)[C@@H](CCCCNC(=O)[C@@H](Cc1ccccc1)NC(=O)CCCCCNC(=O)CN1CCN(CC(=O)O)CCN(CC(=O)O)CCN(CC(=O)O)CC1)NC(=O)[C@H](Cc1ccc(O)cc1)NC(=O)[C@H](CO)NC(=O)[C@H](Cc1c[nH]c2ccccc12)NC(=O)[C@H](Cc1c[nH]cn1)NC(=O)[C@@H]1CCC(=O)N1)C(=O)N[C@@H](CCCNC(=N)N)C(=O)N1CCC[C@H]1C(=O)NCC(N)=O [indium-111 labelled]	–	–	female athymic nude mice, spleen	intravenous, 0.037 MBq, 0.5 h	tissue uptake	0.37 ± 0.08 %ID/g
CC(C)Oc1ccc(CNCCC2(C(C)C)CCOC(C)(C)C2)cc1 (stereo not drawn)	Coelenterazine h 2-monooxygenase	luciferase activity, inhibitor, luminescence counter-screen	–	concentration not given, test 3 new dilution	inhibition	65.6% and 49%
CC(=O)N1CCN(CCN2C(C)=CC(=C(C#N)C#N)C=C2C)CC1	USP5	enzyme activity, inhibitor	–	17 µM	inhibition	0%
Cc1ccc(-c2nn(-c3ccc(S(C)(=O)=O)cc3)cc2C=NN=c2[nH]c(-c3ccc([N+](=O)[O-])cc3)cs2)cc1	PTGS2	enzyme activity	–	10 µM	inhibition	73.2%
O=C1c2ccccc2C(=O)c2c1oc1c3c(ccc21)OCN(CCCn1ccnc1)C3	USP5	enzyme activity, inhibitor	–	17 µM	inhibition	50%
CCn1cc(C(=O)O)c(=O)c2c(N)c(F)c(NC3CCCCC3)cc21	PINK1 (Homo sapiens, UniProt Q9BXM7)	kinase activity	–	0.1 µM, together with: ATP at Km	inhibition	-8.8%
C/C=C/C(=O)Nc1ccc2nc(NCCCCCN(C)C)nc(NCCCCCCN(C)C)c2c1	PRMT3 (Homo sapiens, UniProt O60678)	enzyme activity, inhibitor, radiometric	–	10 µM	inhibition	34%
CCSc1nnc2c(n1)OC(C(=O)c1ccccc1)Nc1ccccc1-2 (stereo not drawn)	USP5	enzyme activity, inhibitor	–	17 µM	inhibition	11%
NC(=O)C[C@H]1CCc2sc3ncnc(O[C@H]4CC[C@H](N5CCOCC5)CC4)c3c21	PRKACG (Homo sapiens, UniProt P22612)	enzyme activity, inhibitor	–	10 µM	inhibition	1%
Cc1ccc(-c2nn(-c3ccc(S(C)(=O)=O)cc3)cc2C=NN=c2[nH]c(-c3ccc(Br)cc3)cs2)cc1 (mixture of isomers)	PTGS2	enzyme activity	–	1 µM	inhibition	52.7%

SMILES	tested on	assay	test system	setting	endpoint	result
Br.CCCCCCCCCn1c2c(c(=N)c3c1CCC3)CCCC2	Coelenterazine h 2-monooxygenase	luciferase activity, inhibitor, luminescence counter-screen	–	concentration not given, test 3 new dilution	inhibition	78.9% and 58%
COc1cccc(-c2cc(F)c(NC(=O)Nc3sc(C)nc3C(=O)O)c(F)c2)c1	DHODH (Homo sapiens, UniProt Q02127)	enzyme activity, DCIP colorimetric	–	20.00 µM	inhibition	29.1% and 29.4% and 29.2%
CN(C)C/C=C/C(=O)Nc1ccc2nc(NCCCCCN(C)C)nc(NCCCCCCN(C)C)c2c1	SUV39H2 (Homo sapiens, UniProt Q9H5I1)	enzyme activity, inhibitor, radiometric	–	10 µM	inhibition	5%
C[Si]1(C[C@H](CN)CC(=O)O)CCCC1	alpha2 adrenergic receptor, rat	binding, radioligand binding	–	70 µM, together with: [3H]rauwolscine	inhibition	4%
O=C1c2ccccc2C(=O)c2c1oc1c3c(ccc21)OCN(CC1CCCO1)C3 (stereo not drawn)	USP5	enzyme activity, inhibitor	–	17 µM	inhibition	52%
O=C(NCc1cccc(Cl)c1)c1ccc(C2CCCCC2)cc1	–	liver microsome stability	human liver microsomes	1 µM, without NADPH	hepatic clearance	11 mL/min/kg
COc1ccccc1Nc1nc(NCC2CCCO2)c2ccccc2n1 (stereo not drawn)	Coelenterazine h 2-monooxygenase	luciferase activity, inhibitor, luminescence counter-screen	–	concentration not given, test 3 new dilution	inhibition	77.7% and 77.8%
C/C=C(/C)C(=O)O[C@@H]1C=C(C)CC[C@]2(O)[C@@H](C(C)C)CC(=O)[C@]12C	PTGS2	enzyme activity, inhibitor	–	0.98 µg/mL	inhibition	0%
CS(=O)(=O)c1ccc(-n2cc(C=NN=c3[nH]c(-c4ccc([N+](=O)[O-])cc4)cs3)c(-c3ccc([N+](=O)[O-])cc3)n2)cc1	PTGS2	enzyme activity	–	1 µM	inhibition	37.6%
OC[C@@H]1[C@@H](O)[C@H](O)[C@@H](O)CN1CCCCCOCc1ccc(-c2cncnc2)cc1	Ugcg	enzyme activity, inhibitor, fluorescence	–	–	IC50	2000 nM
CC(C)C[C@H](NC(=O)[C@H](Cc1ccc(O)cc1)NC(=O)[C@@H](CCCNC(=N)N)NC(=O)[C@@H](CO)NC(=O)[C@H](Cc1ccccc1)NC(=O)[C@H](CC1CCCCC1)NC(=O)[C@H](CC(=O)O)NC(=O)CN1CCN(CC(=O)O)CCN(CC(=O)O)CCN(CC(=O)O)CC1)C(=O)N[C@@H](Cc1c[nH]c2ccccc12)C(=O)N[C@@H](CO)C(=O)O [copper-64 labelled]	–	–	human, upper large intestine	concentration not given, 24 h	activity concentration	2730 Bq/mL and 1780 Bq/mL and 2460 Bq/mL and 369 Bq/mL and 3570 Bq/mL and 2430 Bq/mL
COc1ccc(S(=O)(=O)N2CCc3ccccc3C2)cc1N1CCN(C(=O)c2ccc(F)cc2C(F)(F)F)CC1	PPP2CA (Homo sapiens, UniProt P67775)	enzyme activity, inhibitor	–	1 µM	inhibition	-10.4%
O=C1c2sc(-c3ccc(N4CCC(F)C4)nc3F)nc2CCN1c1cccnc1 (stereo not drawn)	AR	ligand displacement, radioligand	–	1 µM	inhibition	0%
CCOC(=O)c1c(C)oc2c1C(=CNCCO)C(=O)c1ccccc1-2	USP5	enzyme activity, inhibitor	–	17 µM	inhibition	57%
COc1ncc2nc(C)n(Cc3ncc(S(N)(=O)=O)cc3F)c2c1-c1ccccc1	AR	antagonist, cell-based	–	10 µM	inhibition	1.17%
Nc1ccc(N2CCOCC2)c2nonc12	USP5	enzyme activity, inhibitor	–	17 µM	inhibition	94%
O=C(Nc1ccc([C@H]2[C@@H](F)[C@@H](F)C[C@@H](F)[C@H]2F)cc1)C1CC1(F)F (stereo partly drawn)	–	liver microsome stability	rat liver microsomes	1 µM	hepatic clearance	10 mL/min/kg
NS(=O)(=O)c1ccc(CCNCc2ccc(-c3ccc(Cl)cc3)o2)cc1	DRD3 (Homo sapiens, UniProt P35462)	enzyme activity, inhibitor	–	10 µM	inhibition	42.2%
CCCCCCCCN(CCC(=O)Nc1ccccc1)C(=O)C1CCOC1 (stereo not drawn)	Protein-S-isoprenylcysteine O-methyltransferase	enzyme activity	Sf9 membranes	50 µM, together with: [3H]S-adenosylmethionine, biotin-farnesyl-L-cysteine	inhibition	41%
Oc1nc2ncc(Br)cc2[nH]1	USP5	enzyme activity, inhibitor	–	17 µM	inhibition	90%
Cc1nc2c(F)cc(-c3nc(Nc4ccc(CNC(=O)CCCCCCC(=O)NO)cc4)ncc3F)cc2n1C(C)C	CHEK2 (Homo sapiens, UniProt O96017)	enzyme activity, inhibitor	–	1 µM	inhibition	73%

A few entries again:
SMILES	tested on	assay	test system	setting	endpoint	result
Cc1ccc(-c2nn(-c3ccc(S(C)(=O)=O)cc3)cc2C=NN=c2[nH]c(-c3ccc(Br)cc3)cs2)cc1 (mixture of isomers)	PTGS2	enzyme activity	–	1 µM	inhibition	52.7%
COc1ncc2nc(C)n(Cc3ncc(S(N)(=O)=O)cc3F)c2c1-c1ccccc1	AR	antagonist, cell-based	–	10 µM	inhibition	1.17%
CCSc1nnc2c(n1)OC(C(=O)c1ccccc1)Nc1ccccc1-2 (stereo not drawn)	USP5	enzyme activity, inhibitor	–	17 µM	inhibition	11%
O=C1c2ccccc2C(=O)c2c1oc1c3c(ccc21)OCN(CCCn1ccnc1)C3	USP5	enzyme activity, inhibitor	–	17 µM	inhibition	50%
Cc1ccc(-c2nn(-c3ccc(S(C)(=O)=O)cc3)cc2C=NN=c2[nH]c(-c3ccc([N+](=O)[O-])cc3)cs2)cc1	PTGS2	enzyme activity	–	10 µM	inhibition	73.2%
CCCCOc1ccc(CSC(=N)N)cc1	USP5	enzyme activity, inhibitor	–	17 µM	inhibition	3%
